# Measured values from different studies.
# A part holds a random share of what one study measured. “And” joins repeats or separate records; there may be more than shown.
# UniProt Q32MK0, sequence (whole entry, looked up): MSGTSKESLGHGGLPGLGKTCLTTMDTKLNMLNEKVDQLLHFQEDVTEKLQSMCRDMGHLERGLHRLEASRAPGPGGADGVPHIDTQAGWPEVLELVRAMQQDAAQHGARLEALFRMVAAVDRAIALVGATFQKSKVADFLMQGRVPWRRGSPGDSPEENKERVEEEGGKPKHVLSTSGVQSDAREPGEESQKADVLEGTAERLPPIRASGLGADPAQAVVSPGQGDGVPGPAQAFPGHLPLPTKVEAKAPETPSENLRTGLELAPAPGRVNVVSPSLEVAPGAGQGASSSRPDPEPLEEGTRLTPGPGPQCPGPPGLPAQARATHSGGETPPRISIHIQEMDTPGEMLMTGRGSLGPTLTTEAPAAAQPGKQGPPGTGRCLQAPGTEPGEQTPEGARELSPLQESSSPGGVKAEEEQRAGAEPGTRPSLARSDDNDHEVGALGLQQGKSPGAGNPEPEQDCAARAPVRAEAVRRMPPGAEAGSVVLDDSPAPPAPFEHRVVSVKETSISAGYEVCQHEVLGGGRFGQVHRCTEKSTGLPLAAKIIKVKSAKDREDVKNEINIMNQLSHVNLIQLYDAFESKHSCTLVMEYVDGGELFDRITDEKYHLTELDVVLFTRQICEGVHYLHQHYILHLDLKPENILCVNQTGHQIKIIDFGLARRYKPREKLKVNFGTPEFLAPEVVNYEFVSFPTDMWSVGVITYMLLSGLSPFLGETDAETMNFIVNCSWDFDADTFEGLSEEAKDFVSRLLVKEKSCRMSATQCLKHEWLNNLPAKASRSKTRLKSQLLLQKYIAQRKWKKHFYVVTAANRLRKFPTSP
# UniProt Q8IYT8, sequence (whole entry, looked up): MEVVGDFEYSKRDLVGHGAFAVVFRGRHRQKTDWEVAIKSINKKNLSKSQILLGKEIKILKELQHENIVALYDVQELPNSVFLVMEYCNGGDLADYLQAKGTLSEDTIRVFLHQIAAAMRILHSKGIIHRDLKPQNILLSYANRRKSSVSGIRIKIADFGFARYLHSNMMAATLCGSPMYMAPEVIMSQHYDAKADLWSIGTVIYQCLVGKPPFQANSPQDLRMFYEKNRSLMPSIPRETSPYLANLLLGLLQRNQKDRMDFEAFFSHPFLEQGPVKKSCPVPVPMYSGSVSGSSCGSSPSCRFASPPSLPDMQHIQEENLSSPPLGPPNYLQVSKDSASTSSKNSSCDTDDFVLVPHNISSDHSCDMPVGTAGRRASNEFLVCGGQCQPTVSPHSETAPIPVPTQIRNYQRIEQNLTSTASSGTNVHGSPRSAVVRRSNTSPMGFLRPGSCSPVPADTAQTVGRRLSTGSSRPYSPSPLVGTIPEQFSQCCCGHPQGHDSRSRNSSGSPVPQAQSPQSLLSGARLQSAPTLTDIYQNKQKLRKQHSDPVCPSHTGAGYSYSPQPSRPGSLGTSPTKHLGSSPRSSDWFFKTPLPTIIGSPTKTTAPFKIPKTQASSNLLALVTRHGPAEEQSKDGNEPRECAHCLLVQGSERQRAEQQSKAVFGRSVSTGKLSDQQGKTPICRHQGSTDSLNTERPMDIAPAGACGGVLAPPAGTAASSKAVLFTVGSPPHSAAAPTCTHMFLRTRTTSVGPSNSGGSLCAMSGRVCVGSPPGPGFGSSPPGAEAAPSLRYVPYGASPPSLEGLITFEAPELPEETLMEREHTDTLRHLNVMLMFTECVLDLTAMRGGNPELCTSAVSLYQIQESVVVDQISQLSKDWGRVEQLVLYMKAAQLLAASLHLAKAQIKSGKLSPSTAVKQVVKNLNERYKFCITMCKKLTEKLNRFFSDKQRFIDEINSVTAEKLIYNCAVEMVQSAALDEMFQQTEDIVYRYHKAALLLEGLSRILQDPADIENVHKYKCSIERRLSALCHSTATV
# UniProt Q6DT37, sequence (whole entry, looked up): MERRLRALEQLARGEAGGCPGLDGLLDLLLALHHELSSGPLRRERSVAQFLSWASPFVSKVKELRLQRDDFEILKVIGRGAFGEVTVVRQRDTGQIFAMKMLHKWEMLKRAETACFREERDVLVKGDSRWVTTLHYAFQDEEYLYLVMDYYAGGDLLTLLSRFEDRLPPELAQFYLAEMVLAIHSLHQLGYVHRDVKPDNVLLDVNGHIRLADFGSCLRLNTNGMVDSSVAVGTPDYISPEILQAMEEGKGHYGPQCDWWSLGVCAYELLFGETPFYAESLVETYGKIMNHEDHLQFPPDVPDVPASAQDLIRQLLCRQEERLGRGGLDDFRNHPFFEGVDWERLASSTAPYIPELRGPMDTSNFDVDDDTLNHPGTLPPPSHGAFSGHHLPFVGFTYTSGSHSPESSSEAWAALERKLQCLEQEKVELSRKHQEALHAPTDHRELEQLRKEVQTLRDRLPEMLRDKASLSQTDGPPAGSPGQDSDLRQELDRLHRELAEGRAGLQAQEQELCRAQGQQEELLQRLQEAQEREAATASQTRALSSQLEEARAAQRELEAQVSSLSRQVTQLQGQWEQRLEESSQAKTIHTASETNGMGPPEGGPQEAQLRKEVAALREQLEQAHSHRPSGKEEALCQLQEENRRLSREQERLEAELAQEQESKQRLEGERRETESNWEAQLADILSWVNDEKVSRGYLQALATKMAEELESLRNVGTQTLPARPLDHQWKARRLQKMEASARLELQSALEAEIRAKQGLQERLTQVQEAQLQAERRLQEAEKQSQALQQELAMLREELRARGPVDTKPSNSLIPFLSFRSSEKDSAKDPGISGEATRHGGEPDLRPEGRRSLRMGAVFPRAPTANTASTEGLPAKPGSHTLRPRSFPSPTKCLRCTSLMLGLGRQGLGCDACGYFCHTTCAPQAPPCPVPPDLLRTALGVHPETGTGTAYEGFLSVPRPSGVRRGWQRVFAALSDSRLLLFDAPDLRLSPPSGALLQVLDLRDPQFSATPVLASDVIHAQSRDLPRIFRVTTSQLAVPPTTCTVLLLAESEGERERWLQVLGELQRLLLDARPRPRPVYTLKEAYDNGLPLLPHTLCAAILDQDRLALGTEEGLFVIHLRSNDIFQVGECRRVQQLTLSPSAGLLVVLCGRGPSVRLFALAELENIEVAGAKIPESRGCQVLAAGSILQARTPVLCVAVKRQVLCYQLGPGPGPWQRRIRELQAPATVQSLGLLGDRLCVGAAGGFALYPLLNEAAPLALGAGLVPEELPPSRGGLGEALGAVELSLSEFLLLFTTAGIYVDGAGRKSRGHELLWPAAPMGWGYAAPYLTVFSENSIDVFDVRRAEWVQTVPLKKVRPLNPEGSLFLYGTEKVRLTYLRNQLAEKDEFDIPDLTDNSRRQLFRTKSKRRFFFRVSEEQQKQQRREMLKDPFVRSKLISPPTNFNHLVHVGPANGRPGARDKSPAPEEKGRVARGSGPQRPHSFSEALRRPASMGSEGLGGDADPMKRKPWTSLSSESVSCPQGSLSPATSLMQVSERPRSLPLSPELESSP
# UniProt Q15569, sequence (whole entry, looked up): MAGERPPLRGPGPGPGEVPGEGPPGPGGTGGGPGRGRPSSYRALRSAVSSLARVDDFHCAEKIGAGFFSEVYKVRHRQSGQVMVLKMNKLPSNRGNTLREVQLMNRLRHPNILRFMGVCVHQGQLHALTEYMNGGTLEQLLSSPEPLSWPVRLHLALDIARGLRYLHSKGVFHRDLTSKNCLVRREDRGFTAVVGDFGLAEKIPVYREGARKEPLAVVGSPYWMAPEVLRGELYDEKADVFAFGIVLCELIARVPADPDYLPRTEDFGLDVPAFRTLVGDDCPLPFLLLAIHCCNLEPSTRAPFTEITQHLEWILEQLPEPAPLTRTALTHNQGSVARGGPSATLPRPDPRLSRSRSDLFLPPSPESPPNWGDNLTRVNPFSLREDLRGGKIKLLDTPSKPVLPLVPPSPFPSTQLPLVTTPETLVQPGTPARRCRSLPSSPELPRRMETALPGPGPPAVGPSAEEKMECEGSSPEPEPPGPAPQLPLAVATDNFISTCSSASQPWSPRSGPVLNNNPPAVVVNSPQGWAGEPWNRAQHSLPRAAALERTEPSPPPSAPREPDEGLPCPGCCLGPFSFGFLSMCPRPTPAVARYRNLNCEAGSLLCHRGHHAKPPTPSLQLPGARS
# UniProt P36897, sequence (whole entry, looked up): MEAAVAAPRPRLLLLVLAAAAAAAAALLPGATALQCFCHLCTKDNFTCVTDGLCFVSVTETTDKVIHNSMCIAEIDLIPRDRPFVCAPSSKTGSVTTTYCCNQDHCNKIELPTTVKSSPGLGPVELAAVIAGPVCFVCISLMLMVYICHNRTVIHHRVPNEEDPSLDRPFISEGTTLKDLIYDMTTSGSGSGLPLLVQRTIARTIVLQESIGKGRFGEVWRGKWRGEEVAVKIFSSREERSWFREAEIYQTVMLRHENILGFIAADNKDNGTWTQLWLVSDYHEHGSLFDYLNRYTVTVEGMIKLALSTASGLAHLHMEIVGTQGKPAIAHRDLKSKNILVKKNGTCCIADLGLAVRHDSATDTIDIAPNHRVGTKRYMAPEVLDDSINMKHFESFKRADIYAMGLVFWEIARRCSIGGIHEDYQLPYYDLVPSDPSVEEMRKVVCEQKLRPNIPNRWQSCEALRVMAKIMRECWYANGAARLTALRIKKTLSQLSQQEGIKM

# Series 1 — technique: phase 2a clinical trial
# Structure (SMILES): CC(C)n1cnc(-c2ccc(F)cc2)c1-c1ncc(C(=O)Nc2ccc(N3CCN(C)CC3)cc2)[nH]1
# Host: patients with idiopathic pulmonary fibrosis
item,dose,notes,patients with treatment-emergent adverse events [%]
carbon dioxide decreased,dose not given,"Grade 2, all drug arms total",0
electrocardiogram T wave abnormal,dose not given,"Grade 4, all drug arms total",0
left ventricular dysfunction,dose not given,"Grade 2, all drug arms",0
interstitial lung disease,30 mg once daily,Grade 1,0
electrocardiogram high voltage,dose not given,"Grade 2, all drug arms total",0
lumbar vertebral fracture,dose not given,"Grade 2, maximum intensity, all drug arms total",0
investigations (SOC),30 mg once daily,Grade 3,0
electrocardiogram QT prolonged,30 mg once daily,Grade 2,0
metabolism and nutrition disorders (SOC),30 mg once daily,Grade 4,0
electrocardiogram T wave abnormal,30 mg once daily,Grade 2,0
C-reactive protein increased,dose not given,"Grade 5, all drug arms total",0
gastro-oesophageal reflux disease,60 mg once daily,Grade 1,0
hepatic function abnormal,dose not given,"Grade 5, all drug arms total",0
aspartate aminotransferase increased,dose not given,"Grade 4, all drug arms total",0
C-reactive protein increased,60 mg once daily,Grade 2,0
protein urine present,60 mg once daily,Grade 4,0
gastro-oesophageal reflux disease,60 mg once daily,Grade 4,0

# Series 2 — effect on: binding; action: competitor; technique: NanoBRET; cell line: HEK293
# SMILES: CC(C)C(=O)N1CCN(c2nc(OC[C@@H]3CCCN3C)nc3c2CCN(c2cccc4cccc(Cl)c24)C3)C[C@@H]1CC#N
# KRAS G13D: GTPase KRas (KRAS, Homo sapiens, UniProt P01116, G13D)
# KRAS Q61R: GTPase KRas (KRAS, Homo sapiens, UniProt P01116, Q61R)
target,concentration,normalized BRET
"GTPase KRas (KRAS, Homo sapiens, UniProt P01116, G12D)",137 nM,87.3% and 98.8% and 103%
KRAS G13D,412 nM,96.4% and 105% and 94.4%
KRAS Q61R,15.2 nM,108% and 87.2% and 99.9%
KRAS G13D,45.7 nM,107% and 94.6% and 96.8%
KRAS Q61R,137 nM,103% and 92% and 106%
KRAS G13D,137 nM,94.5% and 103% and 96.8%
KRAS G13D,1.69 nM,104% and 99.3% and 101%
KRAS G13D,5.08 nM,98.2% and 98.6% and 109%

# Series 3 — concentration: 1 µM
# SMILES: CC1=C(C#N)C(c2ccc3c(c2)c(NC(=O)c2ccccc2C)nn3C)C(C#N)=C(C)N1
target,effect on,technique,remaining binding
"Muscle, skeletal receptor tyrosine-protein kinase (MUSK, Homo sapiens, UniProt O15146)",cell-free assay,competition with immobilised ligand,98%
"Ribosomal protein S6 kinase alpha-6, N-terminal kinase domain (RPS6KA6, Homo sapiens, UniProt Q9UK32)",cell-free assay,competition with immobilised ligand,100%
"ALK tyrosine kinase receptor (ALK, Homo sapiens, UniProt Q9UM73, L1196M)",cell-free assay,competition with immobilised ligand,80%
"Serine/threonine-protein kinase MRCK gamma (CDC42BPG, Homo sapiens, UniProt Q6DT37)",,competition binding,92%
"Myosin light chain kinase (MYLK3, Homo sapiens, UniProt Q32MK0)",cell-free assay,competition with immobilised ligand,86%
"Dual specificity testis-specific protein kinase 1 (TESK1, Homo sapiens, UniProt Q15569)",cell-free assay,competition with immobilised ligand,96%
"Serine/threonine-protein kinase BRSK2 (BRSK2, Homo sapiens, UniProt Q8IWQ3)",cell-free assay,competition with immobilised ligand,92%
"Serine/threonine-protein kinase ULK2 (ULK2, Homo sapiens, UniProt Q8IYT8)",cell-free assay,competition with immobilised ligand,72%
"Insulin receptor (INSR, Homo sapiens, UniProt P06213)",cell-free assay,competition with immobilised ligand,100%
"TGF-beta receptor type-1 (TGFBR1, Homo sapiens, UniProt P36897)",cell-free assay,competition with immobilised ligand,100%
"NUAK family SNF1-like kinase 1 (NUAK1, Homo sapiens, UniProt O60285)",cell-free assay,competition with immobilised ligand,95%

# Series 4 — effect on: enzyme activity; action: inhibitor; concentration: 0.5 µM; relative to: control
# Target: Serine/threonine-protein kinase BRSK2 (BRSK2, Homo sapiens, UniProt Q8IWQ3)
# Construct (Q8IWQ3 1-736): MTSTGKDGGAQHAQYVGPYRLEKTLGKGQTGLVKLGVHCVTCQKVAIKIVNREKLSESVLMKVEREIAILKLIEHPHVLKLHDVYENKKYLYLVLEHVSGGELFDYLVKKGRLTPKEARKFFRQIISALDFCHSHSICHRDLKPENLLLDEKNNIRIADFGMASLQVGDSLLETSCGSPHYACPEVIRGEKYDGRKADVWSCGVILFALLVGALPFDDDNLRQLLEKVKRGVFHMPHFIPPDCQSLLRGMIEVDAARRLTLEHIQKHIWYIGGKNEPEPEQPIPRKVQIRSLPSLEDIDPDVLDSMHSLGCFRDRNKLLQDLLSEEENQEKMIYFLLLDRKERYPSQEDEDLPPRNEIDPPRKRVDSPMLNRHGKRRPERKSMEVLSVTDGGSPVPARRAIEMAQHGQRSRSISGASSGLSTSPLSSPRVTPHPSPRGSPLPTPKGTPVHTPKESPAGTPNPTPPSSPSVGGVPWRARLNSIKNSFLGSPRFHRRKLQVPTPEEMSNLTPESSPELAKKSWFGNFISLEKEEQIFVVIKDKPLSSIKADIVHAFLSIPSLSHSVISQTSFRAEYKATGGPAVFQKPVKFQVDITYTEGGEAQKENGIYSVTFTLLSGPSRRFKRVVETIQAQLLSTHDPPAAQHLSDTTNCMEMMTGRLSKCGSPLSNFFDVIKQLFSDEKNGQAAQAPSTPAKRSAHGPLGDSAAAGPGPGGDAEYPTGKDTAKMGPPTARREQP
SMILES,remaining activity
Cn1nc2c3c(cccc31)C(=O)c1ccccc1-2,96.4%
N#C/C(=C\c1ccc(O)c(O)c1)C(=O)NCc1ccccc1,99.3%
O=C(NC(NC(=S)Nc1ccc(F)c([N+](=O)[O-])c1)C(Cl)(Cl)Cl)C(c1ccccc1)c1ccccc1 (stereo not shown),102%
CN(C)C[C@H]1CCn2c(c(C3=C(c4cn(C)c5ccccc45)C(=O)NC3=O)c3ccccc32)C1,102%
CCN(CC)C(=O)c1ccc(Nc2nc(OCC3CCCCC3)c3[nH]cnc3n2)cc1,82.5%
CCOc1nc(NC(=O)Cc2cc(OC)ccc2OC)cc(N)c1C#N,103%
Ic1cccc(CSc2nnc(-c3ccncc3)o2)c1,99.3%
Cc1cn(-c2cc(NC(=O)c3ccc(C)c(Nc4nccc(-c5cccnc5)n4)c3)cc(C(F)(F)F)c2)cn1,101%
Cc1cc2ncc(-c3ccccc3)nc2cc1C,102%
O=C1c2ccccc2-c2n[nH]c3cccc1c23,55.8%
c1ccc(-c2[nH]ncc2-c2ccnc3ccccc23)nc1,101%
COc1cc2ncnc(Nc3ccc(O)c(Br)c3)c2cc1OC,80.1%
O=C1C(Cl)=C(N2C(=O)CCC2=O)C(=O)c2ccccc21,100%
COc1cc2c(cc1OC)-c1[nH]nc(Nc3cccc(F)c3)c1C2,92.1%
C[C@@H]1CCN(C(=O)CC#N)C[C@@H]1N(C)c1ncnc2[nH]ccc12,86.9%
c1ccc(-c2cnc(Nc3ccc(OCCN4CCCC4)cc3)s2)cc1,79.3%
Nc1cccc(-c2cc3c(Oc4cccc(O)c4)ncnc3[nH]2)c1,86.9%
N#Cc1c(NC(=O)c2cccc3ccccc23)sc2c1CCCC2,100%
Cc1nc2cc3nc(-c4cccs4)cnc3cc2n1C,98%
CCN(CC)CCNC(=O)c1c(C)[nH]c(/C=C2\C(=O)Nc3ccc(Cl)cc32)c1C,53.7%
COc1cc2ncnc(Nc3cccc(Cl)c3)c2cc1OC,96.7%
O=c1cc(-c2cccc3c2Sc2ccccc2S3)oc(N2CCOCC2)c1,101%
CN([C@@H](Cc1ccc(OS(=O)(=O)c2cccc3cnccc23)cc1)C(=O)N1CCN(c2ccccc2)CC1)S(=O)(=O)c1cccc2cnccc12,100%
CCN(CC)CCNC(=O)c1c(C)[nH]c(/C=C2\C(=O)Nc3ccc(F)cc32)c1C,54.5%
O=C(Nc1cccc(Nc2nccc(Nc3cccc(C(F)(F)F)c3)n2)c1)C1CC1,89.3%

# Some of these lines once more (series 4):
SMILES,remaining activity
O=C(NC(NC(=S)Nc1ccc(F)c([N+](=O)[O-])c1)C(Cl)(Cl)Cl)C(c1ccccc1)c1ccccc1 (stereo not shown),102%
CN(C)C[C@H]1CCn2c(c(C3=C(c4cn(C)c5ccccc45)C(=O)NC3=O)c3ccccc32)C1,102%
CCN(CC)C(=O)c1ccc(Nc2nc(OCC3CCCCC3)c3[nH]cnc3n2)cc1,82.5%
CCOc1nc(NC(=O)Cc2cc(OC)ccc2OC)cc(N)c1C#N,103%
Ic1cccc(CSc2nnc(-c3ccncc3)o2)c1,99.3%
Cc1cn(-c2cc(NC(=O)c3ccc(C)c(Nc4nccc(-c5cccnc5)n4)c3)cc(C(F)(F)F)c2)cn1,101%
Cc1cc2ncc(-c3ccccc3)nc2cc1C,102%
O=C1c2ccccc2-c2n[nH]c3cccc1c23,55.8%
c1ccc(-c2[nH]ncc2-c2ccnc3ccccc23)nc1,101%
COc1cc2ncnc(Nc3ccc(O)c(Br)c3)c2cc1OC,80.1%
